Measurements gathered from unrelated publications.
Numbered parts are unrelated; each lists some results of a single study. Changes are numbered by the printed parent chain.

Series 1 — target: CCND3, cyclin fold, Cln2 fusion (human); method: yeast growth competition, sequencing; matrix: yeast; notes: weak parent motif; baseline: not given; reading: higher = stronger binding
Parent: CDC6 docking peptide (human); TLKGRRLVFDNQL
Substitution | normalised enrichment score
TLKGKRLVFDNQL [R5K] | -0.0474
TLKGRRLVWDNQL [F9W] | 0.195
TLKGRRLVFDNPL [Q12P] | 0.0809
VLKGRRLVFDNQL [T1V] | 0.191

Series 2 — method: protein binding microarray; molecule type: double-stranded DNA, one strand shown; matrix: in vitro; concentration: not given; baseline: not given; reading: higher = stronger binding
Target: Histone acetyltransferase KAT6A, winged helix 1, GST fusion (KAT6A, Homo sapiens, UniProt Q92794, residues 1-85)
Notes: 8-mer, flanks averaged, mean of 2 arrays, mostly near background
Residues (chain): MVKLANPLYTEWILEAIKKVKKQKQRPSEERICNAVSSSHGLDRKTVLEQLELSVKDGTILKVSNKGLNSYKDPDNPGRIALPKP
Sequence | E-score
TAGGGCAA | -0.101
CTGGAAAG | -0.311
CGCGCGCG | 0.485
AGAATAAA | -0.24
AGATGCAG | -0.365
CAAGACAA | -0.142
CGATTAGC | 0.12
CTATTCGA | -0.292

Series 3 — method: universal PBM; molecule type: double-stranded DNA, one strand shown; matrix: in vitro; concentration: not given; reading: higher = stronger binding
Target: Sal-like protein 4, full length isoform B (SALL4, Homo sapiens, UniProt Q9UJQ4-2, residues 1-616)
Notes: 8-mer, flanks averaged, mean of replicates
Construct (chain): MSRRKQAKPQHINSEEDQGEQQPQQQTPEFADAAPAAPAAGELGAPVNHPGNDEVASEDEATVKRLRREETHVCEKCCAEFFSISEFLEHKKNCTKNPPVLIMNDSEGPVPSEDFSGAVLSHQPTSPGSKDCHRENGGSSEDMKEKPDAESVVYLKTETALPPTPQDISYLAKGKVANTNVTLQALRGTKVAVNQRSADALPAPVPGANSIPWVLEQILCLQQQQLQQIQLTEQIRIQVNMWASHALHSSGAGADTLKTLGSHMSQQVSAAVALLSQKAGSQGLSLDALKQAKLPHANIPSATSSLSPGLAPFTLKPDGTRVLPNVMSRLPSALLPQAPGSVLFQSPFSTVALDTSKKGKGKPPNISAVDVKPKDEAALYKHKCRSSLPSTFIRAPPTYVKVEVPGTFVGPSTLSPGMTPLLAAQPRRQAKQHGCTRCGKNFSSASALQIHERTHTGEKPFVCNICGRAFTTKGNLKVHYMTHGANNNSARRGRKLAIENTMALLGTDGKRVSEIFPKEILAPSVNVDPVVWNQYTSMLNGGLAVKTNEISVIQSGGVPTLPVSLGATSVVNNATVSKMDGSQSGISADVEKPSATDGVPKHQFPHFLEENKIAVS
Sequence | E-score
GAATAACC | 0.104
AGGGGGGA | -0.124
CGGCTACA | -0.108
AGGTGTGG | -0.243
GAATTGTC | 0.0394
CCGCGTCC | -0.196
ATAATCGG | 0.176
ACGAACCC | -0.232
AAGCGGGA | -0.152

Mixed results
Molecule | target | assay | test system | conditions | how to read | endpoint | value
PhoQ, residues 284 288 289 292 302 303 SLANIV | PhoP, residues 12 14 15 18 19 AWHSL (Escherichia coli, UniProt P23836) | Sort-seq, measured: YFP reporter | E. coli | PhoQ-PhoP variant library, added: 10 µM Mg2+ | baseline: high Mg2+ state, higher = stronger signaling | fold induction | 5.8

Some of these lines once more (series 2):
Sequence | E-score
AGATGCAG | -0.365
TAGGGCAA | -0.101
